Published values gathered from unrelated publications.
Numbers after ± are the reported error.
Target: mushroom tyrosinase

OCC1CSC(c2ccc(O)c(Br)c2)S1 (stereo not drawn)  IC50 (enzyme activity, inhibitor, dopachrome absorbance; together with: L-tyrosine): 15.6 ± 3.31 µM
Cc1ccc(NC(=O)C2C(=O)C(c3ccccc3)c3ccc4c(c32)C(=O)c2ccccc2C4=O)cc1 (stereo not drawn)  IC50 (inhibitor; together with: L-DOPA substrate): 13.4 ± 0.24 µg/mL
Oc1ccc(COCc2ccc(O)cc2)cc1  IC50 (together with: L-tyrosine): 378 µM
Cc1cc(O)c2c(c1)C(=O)c1cc3oc(=O)cc(C)c3c(O)c1C2=O  IC50 (enzyme activity; together with: L-DOPA): > 100 µg/mL
OCC1CSC(c2ccc(O)cc2O)S1 (stereo not drawn)  IC50 (enzyme activity, inhibitor, dopachrome absorbance; together with: L-tyrosine): 13.9 ± 1.76 µM
O=C1c2ccccc2C(=O)c2c1ccc1c2C(C(=O)Nc2ccc(Cl)cc2)C(=O)C1c1ccccc1 (stereo not drawn)  IC50 (inhibitor; together with: L-DOPA substrate): > 100 µg/mL
Cc1cc(O)cc2c1C(=O)c1c(cc3oc(=O)cc(-c4ccc(Cl)cc4)c3c1O)C2=O  IC50 (enzyme activity; together with: L-DOPA): 71.48 ± 0.17 µg/mL
O=C(/C=C/c1ccc(O)cc1)NCCCCN(CCCNC(=O)/C=C/c1ccc(O)cc1)C(=O)/C=C\c1ccc(O)cc1  IC50 (enzyme activity, inhibitor; together with: L-DOPA): 31.8 µM
COc1cc(OC)c2c(c1)C(=O)c1cc3oc(=O)cc(-c4ccc(Cl)cc4)c3c(O)c1C2=O  IC50 (enzyme activity; together with: L-DOPA): 94.08 ± 0.32 µg/mL
O=C1c2ccccc2C(=O)c2c1ccc1c2C(C(=O)Nc2ccc(Br)cc2)C(=O)C1c1ccccc1 (stereo not drawn)  IC50 (inhibitor; together with: L-DOPA substrate): 42.6 ± 1.04 µg/mL
COc1c2c(cc3oc(=O)cc(-c4ccc(O)cc4)c13)C(=O)c1cc(C)cc(O)c1C2=O  IC50 (enzyme activity; together with: L-DOPA): 61.96 ± 0.48 µg/mL
Oc1ccc(Sc2ccc(O)cc2)cc1  IC50 (together with: L-tyrosine): 102 µM

Excerpt of the above:
OCC1CSC(c2ccc(O)cc2O)S1 (stereo not drawn)  IC50 (enzyme activity, inhibitor, dopachrome absorbance; together with: L-tyrosine): 13.9 ± 1.76 µM
